Published values gathered from unrelated publications.
A part holds a random share of what one study measured. “And” joins repeats or separate records; there may be more than shown.
Chain of UniProt Q5XXA6 (whole entry, unmodified, looked up): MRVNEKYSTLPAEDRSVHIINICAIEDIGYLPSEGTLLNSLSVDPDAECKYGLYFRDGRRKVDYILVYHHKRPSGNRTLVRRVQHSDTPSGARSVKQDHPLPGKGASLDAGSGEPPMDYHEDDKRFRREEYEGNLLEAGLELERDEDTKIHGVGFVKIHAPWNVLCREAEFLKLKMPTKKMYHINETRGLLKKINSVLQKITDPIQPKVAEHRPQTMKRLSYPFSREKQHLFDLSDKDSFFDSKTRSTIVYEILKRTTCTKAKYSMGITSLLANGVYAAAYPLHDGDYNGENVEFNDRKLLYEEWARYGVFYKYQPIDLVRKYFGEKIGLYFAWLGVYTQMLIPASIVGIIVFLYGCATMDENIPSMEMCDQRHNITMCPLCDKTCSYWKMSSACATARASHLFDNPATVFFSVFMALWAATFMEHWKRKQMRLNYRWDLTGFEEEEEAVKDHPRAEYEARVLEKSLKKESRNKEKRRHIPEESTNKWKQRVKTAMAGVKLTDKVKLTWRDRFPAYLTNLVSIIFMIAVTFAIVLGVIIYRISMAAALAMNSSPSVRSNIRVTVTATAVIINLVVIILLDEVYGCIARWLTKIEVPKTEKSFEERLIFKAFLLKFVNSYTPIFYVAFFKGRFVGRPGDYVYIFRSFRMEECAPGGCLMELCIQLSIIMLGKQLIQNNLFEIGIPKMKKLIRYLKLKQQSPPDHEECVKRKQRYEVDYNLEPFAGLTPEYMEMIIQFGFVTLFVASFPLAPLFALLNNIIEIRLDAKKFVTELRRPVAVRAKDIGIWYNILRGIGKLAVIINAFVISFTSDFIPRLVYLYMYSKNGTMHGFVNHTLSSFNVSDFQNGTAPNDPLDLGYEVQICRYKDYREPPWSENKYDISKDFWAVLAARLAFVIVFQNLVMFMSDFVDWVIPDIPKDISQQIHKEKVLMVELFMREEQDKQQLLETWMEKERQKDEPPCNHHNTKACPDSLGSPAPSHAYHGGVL
Chain of UniProt Q96L34 (whole entry, looked up): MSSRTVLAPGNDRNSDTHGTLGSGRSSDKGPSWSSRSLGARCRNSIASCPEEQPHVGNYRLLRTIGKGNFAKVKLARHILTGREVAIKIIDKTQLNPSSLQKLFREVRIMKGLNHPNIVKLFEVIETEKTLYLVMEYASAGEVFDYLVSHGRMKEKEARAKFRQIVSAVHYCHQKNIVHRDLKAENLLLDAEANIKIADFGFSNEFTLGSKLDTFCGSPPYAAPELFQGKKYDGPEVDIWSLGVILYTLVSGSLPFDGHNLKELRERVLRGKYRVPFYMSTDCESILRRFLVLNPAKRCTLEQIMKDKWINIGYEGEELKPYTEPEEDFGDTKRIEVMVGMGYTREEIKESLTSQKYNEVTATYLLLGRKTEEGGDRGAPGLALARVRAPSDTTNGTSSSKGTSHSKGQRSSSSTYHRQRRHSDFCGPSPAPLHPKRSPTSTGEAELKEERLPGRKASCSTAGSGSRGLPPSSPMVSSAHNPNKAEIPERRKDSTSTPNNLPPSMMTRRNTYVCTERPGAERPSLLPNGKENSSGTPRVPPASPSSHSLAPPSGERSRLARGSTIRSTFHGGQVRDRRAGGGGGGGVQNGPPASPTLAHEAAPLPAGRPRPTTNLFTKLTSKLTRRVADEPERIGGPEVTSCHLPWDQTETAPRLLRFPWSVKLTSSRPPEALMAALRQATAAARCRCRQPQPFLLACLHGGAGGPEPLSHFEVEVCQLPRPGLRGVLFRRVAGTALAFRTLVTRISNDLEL
Chain of UniProt Q9BWU1 (whole entry, looked up): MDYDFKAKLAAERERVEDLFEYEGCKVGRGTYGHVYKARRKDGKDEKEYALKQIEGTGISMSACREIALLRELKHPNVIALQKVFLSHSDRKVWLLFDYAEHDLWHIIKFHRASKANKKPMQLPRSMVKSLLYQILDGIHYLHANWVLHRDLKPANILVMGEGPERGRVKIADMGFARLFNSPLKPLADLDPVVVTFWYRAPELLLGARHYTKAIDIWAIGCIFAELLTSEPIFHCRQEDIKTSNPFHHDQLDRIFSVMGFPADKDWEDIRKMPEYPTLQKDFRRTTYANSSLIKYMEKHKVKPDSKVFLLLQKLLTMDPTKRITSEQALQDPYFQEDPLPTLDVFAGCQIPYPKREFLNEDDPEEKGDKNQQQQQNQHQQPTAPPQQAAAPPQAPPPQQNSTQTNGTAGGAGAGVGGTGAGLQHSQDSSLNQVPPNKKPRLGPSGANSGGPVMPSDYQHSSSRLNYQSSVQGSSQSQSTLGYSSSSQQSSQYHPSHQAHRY
Chain of UniProt Q13873 (whole entry, looked up): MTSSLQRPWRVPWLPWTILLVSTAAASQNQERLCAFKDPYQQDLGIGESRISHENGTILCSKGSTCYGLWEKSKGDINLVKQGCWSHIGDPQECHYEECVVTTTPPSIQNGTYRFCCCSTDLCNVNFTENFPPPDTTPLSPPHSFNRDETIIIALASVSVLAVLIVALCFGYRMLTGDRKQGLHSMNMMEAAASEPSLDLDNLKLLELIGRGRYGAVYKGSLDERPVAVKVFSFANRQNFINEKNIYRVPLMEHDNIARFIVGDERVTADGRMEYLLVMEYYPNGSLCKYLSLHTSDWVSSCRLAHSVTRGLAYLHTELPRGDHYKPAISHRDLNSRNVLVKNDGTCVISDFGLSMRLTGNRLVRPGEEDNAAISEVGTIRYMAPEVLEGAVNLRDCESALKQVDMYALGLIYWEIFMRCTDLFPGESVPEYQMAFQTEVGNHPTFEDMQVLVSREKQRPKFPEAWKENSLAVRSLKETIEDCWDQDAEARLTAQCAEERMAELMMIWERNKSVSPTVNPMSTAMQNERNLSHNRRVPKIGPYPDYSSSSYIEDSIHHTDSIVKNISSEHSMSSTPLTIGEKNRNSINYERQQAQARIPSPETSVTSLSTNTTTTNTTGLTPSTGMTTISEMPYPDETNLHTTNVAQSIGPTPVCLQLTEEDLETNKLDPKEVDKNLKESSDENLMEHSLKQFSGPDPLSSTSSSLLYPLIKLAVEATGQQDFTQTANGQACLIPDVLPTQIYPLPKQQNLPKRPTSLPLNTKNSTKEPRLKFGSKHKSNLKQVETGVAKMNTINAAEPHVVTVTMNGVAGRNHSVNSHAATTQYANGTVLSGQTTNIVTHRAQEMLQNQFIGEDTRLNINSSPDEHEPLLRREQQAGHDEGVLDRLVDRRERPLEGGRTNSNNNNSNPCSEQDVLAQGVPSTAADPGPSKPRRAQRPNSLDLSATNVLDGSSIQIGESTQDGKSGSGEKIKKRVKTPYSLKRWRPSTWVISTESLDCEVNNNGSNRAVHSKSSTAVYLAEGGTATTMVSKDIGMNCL
Chain of UniProt O00238 (whole entry, looked up): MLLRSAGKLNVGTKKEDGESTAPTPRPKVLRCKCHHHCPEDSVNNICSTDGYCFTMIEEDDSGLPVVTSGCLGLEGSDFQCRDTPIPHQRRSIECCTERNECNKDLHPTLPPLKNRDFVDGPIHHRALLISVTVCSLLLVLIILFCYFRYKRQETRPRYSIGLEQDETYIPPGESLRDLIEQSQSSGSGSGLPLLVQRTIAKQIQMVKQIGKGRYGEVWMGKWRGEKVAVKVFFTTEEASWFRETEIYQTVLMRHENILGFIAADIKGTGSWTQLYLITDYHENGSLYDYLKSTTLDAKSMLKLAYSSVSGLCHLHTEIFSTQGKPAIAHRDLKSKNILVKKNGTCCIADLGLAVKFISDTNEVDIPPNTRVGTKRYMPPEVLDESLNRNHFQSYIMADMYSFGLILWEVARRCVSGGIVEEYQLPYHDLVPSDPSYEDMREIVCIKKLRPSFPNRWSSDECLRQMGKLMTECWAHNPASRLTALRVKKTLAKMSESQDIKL
Chain of UniProt O94921 (whole entry, looked up): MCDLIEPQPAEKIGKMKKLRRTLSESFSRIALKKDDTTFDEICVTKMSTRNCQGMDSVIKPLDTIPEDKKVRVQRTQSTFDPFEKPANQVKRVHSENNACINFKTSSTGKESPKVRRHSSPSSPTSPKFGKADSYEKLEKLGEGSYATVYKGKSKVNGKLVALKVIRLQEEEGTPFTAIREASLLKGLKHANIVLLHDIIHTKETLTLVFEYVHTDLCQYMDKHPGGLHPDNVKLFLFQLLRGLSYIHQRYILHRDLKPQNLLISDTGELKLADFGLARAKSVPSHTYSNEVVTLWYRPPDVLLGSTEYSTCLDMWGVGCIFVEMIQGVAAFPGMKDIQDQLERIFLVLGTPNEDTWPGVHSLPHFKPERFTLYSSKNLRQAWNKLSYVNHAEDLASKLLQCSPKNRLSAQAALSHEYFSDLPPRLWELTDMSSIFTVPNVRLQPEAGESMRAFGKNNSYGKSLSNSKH
Chain of UniProt P19784 (whole entry, looked up): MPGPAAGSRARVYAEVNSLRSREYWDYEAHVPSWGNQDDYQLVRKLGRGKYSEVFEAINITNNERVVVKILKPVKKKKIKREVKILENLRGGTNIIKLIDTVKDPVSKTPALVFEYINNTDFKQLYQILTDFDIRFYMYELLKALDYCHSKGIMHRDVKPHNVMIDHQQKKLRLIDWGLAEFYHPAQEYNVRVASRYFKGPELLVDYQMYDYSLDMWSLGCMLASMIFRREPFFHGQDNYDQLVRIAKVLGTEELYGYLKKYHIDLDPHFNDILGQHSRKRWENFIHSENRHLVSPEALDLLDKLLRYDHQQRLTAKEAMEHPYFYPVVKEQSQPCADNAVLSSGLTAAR
Chain of UniProt Q9UQB9 (whole entry, looked up): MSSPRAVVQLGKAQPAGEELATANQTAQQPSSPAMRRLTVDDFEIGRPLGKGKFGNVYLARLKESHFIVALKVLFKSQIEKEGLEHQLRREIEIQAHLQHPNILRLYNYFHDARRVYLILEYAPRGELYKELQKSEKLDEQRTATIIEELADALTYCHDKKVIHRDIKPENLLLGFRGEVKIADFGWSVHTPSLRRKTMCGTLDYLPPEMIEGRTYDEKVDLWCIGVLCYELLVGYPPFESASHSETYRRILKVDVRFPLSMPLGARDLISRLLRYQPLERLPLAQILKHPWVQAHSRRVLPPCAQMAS

Sample 1
Compound: CC(=O)N[C@@H](Cc1c[nH]c2ccccc12)C(=O)N[C@@H](CCC(=O)C=[N+]=[N-])C(=O)OC(C)C
Host: C57BL/6 CES1-/- mice, EL4 tumour
Medium: EL4 tumour
Route: subcutaneous
Dose: 0.3 mg/kg/day DON equivalent
Time: 5 days
Quantity: metabolite peak intensity
assay = UPLC-MS/MS, item: 6-phosphogluconate; result = 319000 a.u. and 224000 a.u. and 297000 a.u. and 246000 a.u. and 225000 a.u. and 324000 a.u.
assay = UPLC-MS/MS metabolomics, item: N-acetylglutamine; conditions = normalised to tissue mass; how to read = higher = more metabolite; result = 5.16e+06 a.u. and 5.17e+06 a.u. and 4.43e+06 a.u. and 3.15e+06 a.u. and 4.77e+06 a.u. and 4.14e+06 a.u.
assay = LC-MS/MS metabolomics, item: o-tyrosine; how to read = higher = more metabolite; result = 334000 a.u. and 710000 a.u. and 842000 a.u. and 1.21e+06 a.u. and 458000 a.u. and 418000 a.u.

Sample 2
SMILES: Cc1nc(N2CC[C@@H](O)C2)ncc1-c1cc(C(F)(F)F)cc2[nH]ncc12
Concentration: 1 µM
Quantity: remaining binding
target = Aurora kinase C (AURKC, Homo sapiens, UniProt Q9UQB9); assay = cell-free assay, competition with immobilised ligand; result = 100%
target = Bone morphogenetic protein receptor type-2 (BMPR2, Homo sapiens, UniProt Q13873); assay = cell-free assay, competition with immobilised ligand; result = 81%
target = Peripheral plasma membrane protein CASK (CASK, Homo sapiens, UniProt O14936); assay = binding, competition with immobilised ligand; result = 95%
target = Serine/threonine-protein kinase Nek7 (NEK7, Homo sapiens, UniProt Q8TDX7); assay = binding, competition with immobilised ligand; result = 97%
target = Bone morphogenetic protein receptor type-1B (BMPR1B, Homo sapiens, UniProt O00238); assay = cell-free assay, competition with immobilised ligand; result = 60%
target = Casein kinase II subunit alpha' (CSNK2A2, Homo sapiens, UniProt P19784); assay = cell-free assay, competition with immobilised ligand; result = 91%
target = Epidermal growth factor receptor (EGFR, Homo sapiens, UniProt P00533, del747-750/T751S); assay = cell-free assay, competition with immobilised ligand; result = 100%
target = Serine/threonine-protein kinase MARK2 (MARK2, Homo sapiens, UniProt Q7KZI7); assay = binding, competition with immobilised ligand; result = 100%
target = Cyclin-dependent kinase 14 (CDK14, Homo sapiens, UniProt O94921); assay = binding, competition with immobilised ligand; result = 100%
target = Cyclin-dependent kinase 19 (CDK19, Homo sapiens, UniProt Q9BWU1); assay = competition binding; result = 100%
target = MAP/microtubule affinity-regulating kinase 4 (MARK4, Homo sapiens, UniProt Q96L34); assay = binding, competition with immobilised ligand; result = 80%
target = Ribosomal protein S6 kinase alpha-6, N-terminal kinase domain (RPS6KA6, Homo sapiens, UniProt Q9UK32); assay = binding, competition with immobilised ligand; result = 51%
target = Casein kinase I isoform alpha-like (CSNK1A1L, Homo sapiens, UniProt Q8N752); assay = cell-free assay, competition with immobilised ligand; result = 93%
target = Serine/threonine-protein kinase Chk2 (CHEK2, Homo sapiens, UniProt O96017); assay = binding, competition with immobilised ligand; result = 96%

Sample 3
Organism: Sarcocystis neurona
Read-out: parasite growth
Concentration: 10 µM
Notes: second screen
Baseline: untreated
Quantity: log2 fold change
SMILES = CC(COc1ccccc1Cc1ccccc1)N1CCCCC1.O=P(O)(O)O (stereo not shown); result = -0.19
SMILES = Nc1ncnc2c1ncn2[C@@H]1O[C@H](CO)C[C@H]1O; result = 0.29
SMILES = O=C(O[C@@H]1Cc2c(O)cc(O)cc2O[C@@H]1c1cc(O)c(O)c(O)c1)c1cc(O)c(O)c(O)c1; result = 0.45
SMILES = O=c1ncc(F)c[nH]1; result = 0.00923

Sample 4
Host: mouse
Medium: microsomes or S9
Concentration: 2 µM
Time: 0.5 h
Quantity: remaining compound
Structure (SMILES) = CC(C)(C)C(O)CN1C2=NCCN2c2ccccc21 (stereo not shown); result = 97.9%
Structure (SMILES) = CCOC(=O)Cn1c(=N)sc2cc3c(cc21)OCCO3; result = 1.32%
Structure (SMILES) = Nc1ccc(Sc2nccc(-c3cccs3)n2)cc1; result = 44.9%
Structure (SMILES) = Brc1ccccc1Cn1c(-c2ccc(Oc3ccccc3)cc2)cn2ncnc12; result = 0.0336%
Structure (SMILES) = C[C@@H]1[C@@H](CO)[C@](O)(C(F)(F)F)c2cc([N+](=O)[O-])cn21; result = 95.6%

Sample 5
Compound: C=CCc1ccc(O)c(-c2ccc(O)c(CC=C)c2)c1
Read-out: chloride current
Technique: whole-cell voltage clamp
Quantity: IC50
target = Anoctamin-1 (ANO1, Homo sapiens, UniProt Q5XXA6, del476-501/F628I); assay = inhibitor; conditions = F602I mutant at -100 mV; result = 22.6 µM
target = Anoctamin-1 (ANO1, Homo sapiens, UniProt Q5XXA6, del476-501/F623A); conditions = membrane voltage 40 mV; result = 8.47 µM
target = Anoctamin-1 (ANO1, Homo sapiens, UniProt Q5XXA6, del476-501/R631D); assay = inhibitor; conditions = R605D mutant at -100 mV; result = 27 µM
target = Anoctamin-1 (ANO1, Homo sapiens, UniProt Q5XXA6, del476-501/L548A); conditions = membrane voltage -20 mV; result = 6.37 µM

Mixed results
SMILES = COc1ccc(-c2c(Nc3ccccn3)[nH]c3c(C4=CCCCC4)c(-c4ccccc4)nn3c2=O)cc1; system = human patients, plasma; conditions = oral, 200 mg once daily, day 15, cycle 1, tau 24 h; quantity = AUC(0-tau) geometric mean; result = 108 µg·h/mL
